Experimental data pooled from the literature.
Compare with care: the assays were run in different laboratories. Numbers after ± are the reported error.
UniProt Q9UER7, sequence (55-144, looked up): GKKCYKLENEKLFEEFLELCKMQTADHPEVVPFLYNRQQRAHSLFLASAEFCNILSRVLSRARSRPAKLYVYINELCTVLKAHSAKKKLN
UniProt P06971, sequence (whole entry, looked up): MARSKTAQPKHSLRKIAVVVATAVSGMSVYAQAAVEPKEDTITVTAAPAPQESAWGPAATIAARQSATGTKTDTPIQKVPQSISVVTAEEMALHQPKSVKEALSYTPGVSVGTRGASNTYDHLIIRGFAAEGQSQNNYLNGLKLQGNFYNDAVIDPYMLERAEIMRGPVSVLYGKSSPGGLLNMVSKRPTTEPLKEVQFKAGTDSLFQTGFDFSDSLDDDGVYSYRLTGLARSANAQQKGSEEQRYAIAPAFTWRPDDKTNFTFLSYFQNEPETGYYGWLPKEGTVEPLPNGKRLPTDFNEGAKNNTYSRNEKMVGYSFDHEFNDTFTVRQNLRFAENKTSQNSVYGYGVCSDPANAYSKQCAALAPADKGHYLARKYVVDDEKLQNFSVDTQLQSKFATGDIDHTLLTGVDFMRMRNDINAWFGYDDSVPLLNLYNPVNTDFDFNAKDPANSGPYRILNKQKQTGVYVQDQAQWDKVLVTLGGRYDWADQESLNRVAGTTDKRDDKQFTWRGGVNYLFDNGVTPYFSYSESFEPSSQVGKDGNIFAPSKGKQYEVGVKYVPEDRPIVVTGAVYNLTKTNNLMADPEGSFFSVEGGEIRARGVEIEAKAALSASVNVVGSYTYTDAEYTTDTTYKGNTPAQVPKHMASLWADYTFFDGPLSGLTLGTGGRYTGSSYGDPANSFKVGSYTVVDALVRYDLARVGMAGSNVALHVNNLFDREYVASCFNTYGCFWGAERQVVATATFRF
UniProt O54709, sequence (whole entry, looked up): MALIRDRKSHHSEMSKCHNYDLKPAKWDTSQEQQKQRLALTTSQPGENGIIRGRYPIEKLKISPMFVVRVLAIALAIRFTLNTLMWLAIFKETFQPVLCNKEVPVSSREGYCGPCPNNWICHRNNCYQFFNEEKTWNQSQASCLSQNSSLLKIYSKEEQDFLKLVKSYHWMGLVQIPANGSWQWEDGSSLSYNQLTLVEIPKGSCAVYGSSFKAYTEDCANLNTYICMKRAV
UniProt Q06911, sequence (whole entry, looked up): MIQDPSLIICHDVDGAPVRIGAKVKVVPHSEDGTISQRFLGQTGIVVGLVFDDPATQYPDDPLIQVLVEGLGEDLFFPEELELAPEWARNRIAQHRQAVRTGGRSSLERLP
UniProt O66465, sequence (whole entry, unmodified, looked up): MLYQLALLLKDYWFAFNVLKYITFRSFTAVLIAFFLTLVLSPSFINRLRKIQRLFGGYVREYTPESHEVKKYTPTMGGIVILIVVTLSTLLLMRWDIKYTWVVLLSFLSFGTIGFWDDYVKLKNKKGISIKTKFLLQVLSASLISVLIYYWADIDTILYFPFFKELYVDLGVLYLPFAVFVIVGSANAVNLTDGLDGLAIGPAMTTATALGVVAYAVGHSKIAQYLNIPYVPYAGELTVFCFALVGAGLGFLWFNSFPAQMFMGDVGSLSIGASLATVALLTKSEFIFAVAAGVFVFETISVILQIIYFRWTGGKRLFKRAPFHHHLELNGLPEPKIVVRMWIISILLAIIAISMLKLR
UniProt P02554, sequence (whole entry, looked up): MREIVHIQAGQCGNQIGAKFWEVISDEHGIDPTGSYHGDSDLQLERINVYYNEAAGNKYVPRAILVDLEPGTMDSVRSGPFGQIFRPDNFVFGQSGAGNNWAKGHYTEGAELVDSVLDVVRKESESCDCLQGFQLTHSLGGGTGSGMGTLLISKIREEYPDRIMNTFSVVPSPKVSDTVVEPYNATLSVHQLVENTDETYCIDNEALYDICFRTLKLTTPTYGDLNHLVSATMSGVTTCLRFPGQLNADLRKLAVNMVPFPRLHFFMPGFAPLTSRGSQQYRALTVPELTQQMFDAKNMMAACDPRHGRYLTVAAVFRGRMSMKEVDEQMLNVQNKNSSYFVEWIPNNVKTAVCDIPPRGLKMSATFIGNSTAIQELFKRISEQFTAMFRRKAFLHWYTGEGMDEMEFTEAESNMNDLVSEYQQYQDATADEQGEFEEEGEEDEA
UniProt Q14149, sequence (whole entry, looked up): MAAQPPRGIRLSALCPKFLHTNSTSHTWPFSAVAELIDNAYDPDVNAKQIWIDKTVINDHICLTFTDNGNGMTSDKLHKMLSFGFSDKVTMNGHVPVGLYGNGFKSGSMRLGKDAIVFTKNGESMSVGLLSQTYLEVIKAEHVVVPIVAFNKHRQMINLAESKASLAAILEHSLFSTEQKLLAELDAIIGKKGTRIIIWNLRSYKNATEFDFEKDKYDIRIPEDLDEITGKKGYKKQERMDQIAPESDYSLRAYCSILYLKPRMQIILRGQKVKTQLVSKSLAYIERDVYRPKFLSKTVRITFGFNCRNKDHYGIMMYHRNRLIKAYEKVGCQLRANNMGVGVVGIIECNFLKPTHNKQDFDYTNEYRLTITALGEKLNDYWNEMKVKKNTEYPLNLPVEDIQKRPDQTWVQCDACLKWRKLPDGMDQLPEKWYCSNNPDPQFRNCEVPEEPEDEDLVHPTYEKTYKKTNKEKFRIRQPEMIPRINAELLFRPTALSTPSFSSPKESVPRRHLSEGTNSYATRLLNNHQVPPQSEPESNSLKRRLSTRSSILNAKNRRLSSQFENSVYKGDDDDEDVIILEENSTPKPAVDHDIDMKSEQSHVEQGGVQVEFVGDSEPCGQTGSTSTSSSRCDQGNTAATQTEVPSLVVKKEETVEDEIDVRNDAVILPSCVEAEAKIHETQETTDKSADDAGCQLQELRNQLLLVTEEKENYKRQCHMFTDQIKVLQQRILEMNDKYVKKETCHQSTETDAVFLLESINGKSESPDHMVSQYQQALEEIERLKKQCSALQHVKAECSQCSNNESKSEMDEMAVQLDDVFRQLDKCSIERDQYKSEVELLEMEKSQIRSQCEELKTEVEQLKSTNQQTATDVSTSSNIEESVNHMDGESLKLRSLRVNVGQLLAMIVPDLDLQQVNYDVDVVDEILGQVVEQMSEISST
UniProt Q9Y657, sequence (whole entry, looked up): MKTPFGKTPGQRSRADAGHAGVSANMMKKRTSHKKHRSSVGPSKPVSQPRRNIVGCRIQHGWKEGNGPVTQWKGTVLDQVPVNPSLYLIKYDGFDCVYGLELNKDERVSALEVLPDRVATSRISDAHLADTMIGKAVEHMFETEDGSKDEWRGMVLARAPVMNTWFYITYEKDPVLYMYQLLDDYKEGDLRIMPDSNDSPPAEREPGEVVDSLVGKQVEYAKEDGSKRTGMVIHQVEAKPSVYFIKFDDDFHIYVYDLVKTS
UniProt P51449, sequence (whole entry, looked up): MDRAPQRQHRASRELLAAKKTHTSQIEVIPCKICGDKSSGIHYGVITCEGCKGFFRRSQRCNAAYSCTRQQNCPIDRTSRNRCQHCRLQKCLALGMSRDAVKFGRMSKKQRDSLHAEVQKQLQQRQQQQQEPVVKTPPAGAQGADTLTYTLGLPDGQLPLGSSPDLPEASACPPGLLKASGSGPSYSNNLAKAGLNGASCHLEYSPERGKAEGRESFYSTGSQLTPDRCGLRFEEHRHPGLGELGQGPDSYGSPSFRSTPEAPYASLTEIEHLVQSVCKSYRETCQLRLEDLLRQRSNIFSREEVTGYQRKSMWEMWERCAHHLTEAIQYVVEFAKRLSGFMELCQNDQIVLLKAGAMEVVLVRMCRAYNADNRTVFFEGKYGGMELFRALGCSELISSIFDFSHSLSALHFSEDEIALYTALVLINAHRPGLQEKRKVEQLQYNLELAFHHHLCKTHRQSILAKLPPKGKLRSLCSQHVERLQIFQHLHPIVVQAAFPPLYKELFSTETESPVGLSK
UniProt P11362, sequence (whole entry, looked up): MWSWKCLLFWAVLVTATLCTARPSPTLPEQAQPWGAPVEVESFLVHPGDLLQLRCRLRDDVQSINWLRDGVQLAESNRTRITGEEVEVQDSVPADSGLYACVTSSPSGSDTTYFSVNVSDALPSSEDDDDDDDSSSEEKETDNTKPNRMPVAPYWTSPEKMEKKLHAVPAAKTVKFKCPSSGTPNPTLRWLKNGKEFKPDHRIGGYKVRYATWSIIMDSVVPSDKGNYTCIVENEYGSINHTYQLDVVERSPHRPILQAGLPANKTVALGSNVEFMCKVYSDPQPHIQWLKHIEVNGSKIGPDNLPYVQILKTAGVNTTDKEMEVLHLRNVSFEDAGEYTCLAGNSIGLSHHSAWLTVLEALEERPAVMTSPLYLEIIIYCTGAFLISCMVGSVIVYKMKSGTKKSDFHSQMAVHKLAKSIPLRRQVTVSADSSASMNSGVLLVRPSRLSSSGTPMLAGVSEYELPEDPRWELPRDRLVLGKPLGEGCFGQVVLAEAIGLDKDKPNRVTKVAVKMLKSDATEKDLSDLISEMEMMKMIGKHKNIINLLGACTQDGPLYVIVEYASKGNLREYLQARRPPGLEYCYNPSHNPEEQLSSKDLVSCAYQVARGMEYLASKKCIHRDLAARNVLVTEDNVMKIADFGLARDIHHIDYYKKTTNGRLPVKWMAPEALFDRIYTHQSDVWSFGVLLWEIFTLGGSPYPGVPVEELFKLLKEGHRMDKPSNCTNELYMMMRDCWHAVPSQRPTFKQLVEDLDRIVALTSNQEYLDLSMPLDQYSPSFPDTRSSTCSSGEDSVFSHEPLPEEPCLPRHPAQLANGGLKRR
UniProt Q9LFP6, sequence (whole entry, looked up): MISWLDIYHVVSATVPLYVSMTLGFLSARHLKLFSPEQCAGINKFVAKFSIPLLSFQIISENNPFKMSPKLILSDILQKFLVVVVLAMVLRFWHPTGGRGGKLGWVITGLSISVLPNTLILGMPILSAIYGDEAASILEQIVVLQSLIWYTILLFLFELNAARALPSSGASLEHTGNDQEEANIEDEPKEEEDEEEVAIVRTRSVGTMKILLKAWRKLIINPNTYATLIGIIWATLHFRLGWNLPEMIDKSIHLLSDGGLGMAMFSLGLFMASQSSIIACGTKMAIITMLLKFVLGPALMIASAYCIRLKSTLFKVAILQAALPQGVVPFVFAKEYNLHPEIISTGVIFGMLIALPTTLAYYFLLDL

SMILES | target | assay | test system | conditions | Kd [µM]
CC(=O)N[C@H]1C(O)O[C@H](CO)[C@@H](O[C@@H]2O[C@H](CO)[C@H](O)[C@H](O)[C@H]2O)[C@@H]1O (stereo partly shown) | Galectin-3 (LGALS3, Homo sapiens, UniProt P17931) | isothermal titration calorimetry | – | full-length protein | 33
C[C@H](N)C(=O)N[C@@H](CCCNC(=N)N)C(=O)N[C@H](C(=O)N[C@@H](CCCC[N+](C)(C)C)C(=O)N[C@@H](CCC(N)=O)C(=O)N[C@H](C(=O)N[C@@H](C)C(=O)N[C@@H](CCCNC(=N)N(C)C)C(=O)N[C@@H](CCCCN)C(=O)N[C@@H](CO)C(=O)O)[C@@H](C)O)[C@@H](C)O | Spindlin-1 (SPIN1, Homo sapiens, UniProt Q9Y657) | binding, ITC | – | pH 7.5 | 0.045
CC[C@@H]1[C@@H](C)O[C@@](O)([C@@H](C)[C@H](O)[C@H](C)[C@H]2OC(=O)/C=C/C=C/[C@H](C)[C@@H]([C@@H](C)[C@@H](O)[C@H](C)[C@@]3(O)C[C@@H](O[C@H]4C[C@H](O)[C@H](O)[C@H](C)O4)[C@H](CC)[C@@H](C)O3)OC(=O)/C=C/C=C/[C@@H]2C)C[C@H]1O[C@H]1C[C@H](O)[C@H](O)[C@H](C)O1 | Nuclear receptor ROR-gamma (RORC, Homo sapiens, UniProt P51449) | binding, SPR | – | – | 5.05
O=C(O)COc1ccccc1 | PIN8 (Arabidopsis thaliana, UniProt Q9LFP6) | cell-free assay | – | – | 489
CC[C@H](C)[C@H](NC(=O)CNC(C)=O)C(=O)N[C@@H](CCCNC(=N)N)C(=O)N[C@@H](CCC(=O)O)C(=O)N[C@@H](C)C(=O)N[C@H](C(=O)N[C@@H](CC(C)C)C(=O)N[C@@H](CCCNC(=N)N)C(=O)N[C@@H](C)C(=O)N[C@@H](Cc1c[nH]c2ccccc12)C(=O)N[C@@H](CCC(=O)O)C(=O)N[C@@H](CCCNC(=N)N)C(=O)N[C@@H](CCCNC(=N)N)C(=O)N[C@@H](Cc1ccc(O)cc1)C(=O)NCC(=O)N[C@@H](Cc1ccccc1)C(=O)N1CCC[C@H]1C(=O)N[C@@H](CCCNC(=N)N)C(=O)N1CCC[C@H]1C(=O)N[C@@H](CC(C)C)C(=O)N[C@@H](CCCNC(=N)N)C(=O)N[C@@H](CO)C(=O)N[C@@H](CCC(=O)O)C(N)=O)[C@@H](C)O | Antirepressor protein CarS (carS, Myxococcus xanthus, UniProt Q06911) | isothermal titration calorimetry | – | pH 7.5, 35 °C | 0.27 ± 0.022
C[C@H](N)C(=O)N[C@@H](CCCNC(=N)N)C(=O)N[C@H](C(=O)N[C@@H](CCCCN)C(=O)N[C@@H](CCC(N)=O)C(=O)N[C@H](C(=O)N[C@@H](C)C(=O)N[C@@H](CCCNC(=N)N)C(=O)N[C@@H](CCCCN)C(=O)N[C@@H](CO)C(=O)N[C@H](C(=O)NCC(=O)O)[C@@H](C)O)[C@@H](C)O)[C@@H](C)O | MORC family CW-type zinc finger protein 3, CW domain (MORC3, Homo sapiens, UniProt Q14149) | binding | – | – | 6.8
CC[C@H](C)[C@H](NC(=O)[C@H](Cc1c[nH]cn1)NC(=O)[C@H](CCCCNC(=O)[C@@H](NC(=O)[C@H](CCCCN)NC(=O)CSC[C@H](NC(=O)[C@H](Cc1ccccc1)NC(=O)[C@H](CCCCNC(=O)[C@H](CC(C)C)NC(=O)[C@@H]1CCCN1C(=O)[C@H](CCCCN)NC(=O)C[C@@H]1O[C@@H](C)[C@@H](O)[C@@H](O)[C@@H]1O)NC(=O)[C@H](CC(C)C)NC(=O)[C@@H]1CCCN1C(=O)[C@H](CCCCN)NC(=O)C[C@@H]1O[C@@H](C)[C@@H](O)[C@@H](O)[C@@H]1O)C(N)=O)[C@@H](C)CC)NC(=O)[C@@H](NC(=O)[C@H](CCCCN)NC(=O)CSC[C@H](NC(=O)[C@H](Cc1ccccc1)NC(=O)[C@H](CCCCNC(=O)[C@H](CC(C)C)NC(=O)[C@@H]1CCCN1C(=O)[C@H](CCCCN)NC(=O)C[C@@H]1O[C@@H](C)[C@@H](O)[C@@H](O)[C@@H]1O)NC(=O)[C@H](CC(C)C)NC(=O)[C@@H]1CCCN1C(=O)[C@H](CCCCN)NC(=O)C[C@@H]1O[C@@H](C)[C@@H](O)[C@@H](O)[C@@H]1O)C(N)=O)[C@@H](C)CC)C(N)=O | Fucose-binding lectin PA-IIL (lecB, Pseudomonas aeruginosa, UniProt Q9HYN5) | binding, ITC | – | pH 7.5 | 0.088
CN(C)C(=O)C(NC(=O)c1ccccc1-c1ccc(C(F)(F)F)cc1)c1cccc(C(F)(F)F)c1 (stereo not shown) | NKG2-D type II integral membrane protein (Klrk1, Mus musculus, UniProt O54709) | binding, surface plasmon resonance | – | – | > 80
CSCC[C@H](NC(C)=O)C(=O)N[C@@H](CO)C(=O)N[C@@H](CO)C(=O)N1CCC[C@H]1C(=O)N1CCC[C@H]1C(=O)N[C@H]1CSCc2cc3cc(c2)CSC[C@@H](C(=O)N[C@@H](CC(C)C)C(=O)N[C@@H](CCCNC(=N)N)C(=O)N[C@@H](CCCNC(=N)N)C(=O)N[C@@H](Cc2ccc(O)cc2)C(=O)NCC(=O)N[C@@H](CO)C(=O)NCC(=O)N[C@@H](CO)C(=O)NCC(=O)N[C@@H](CO)C(=O)N[C@@H](CC(=O)O)C(=O)N[C@@H](Cc2ccc(O)cc2)C(=O)N[C@@H](CCCCN)C(=O)N[C@@H](CC(=O)O)C(=O)N[C@@H](CC(=O)O)C(=O)N[C@@H](CC(=O)O)C(=O)N[C@@H](CC(=O)O)C(=O)N[C@@H](CCCCN)C(N)=O)NC(=O)[C@H](CSC3)NC(=O)CNC(=O)[C@H](CC(C)C)NC(=O)[C@H]([C@@H](C)O)NC1=O | Fibroblast growth factor receptor 1 (FGFR1, Homo sapiens, UniProt P11362) | binding, BLI | – | – | 4.15
N=C(N)NCCC[C@H](NC(=O)[C@H](Cc1ccccc1)NC(=O)[C@@H]1CCCN1C(=O)[C@H](CO)NC(=O)[C@H](Cc1ccccc1)NC(=O)CNC(=O)[C@@H]1CCCN1C(=O)[C@@H]1CCCN1C(=O)[C@@H](N)CCCNC(=N)N)C(=O)N[C@@H](CCCCNS(=O)(=O)c1ccc(C2=c3cc4c5c(c3Oc3c2cc2c6c3CCCN6CCC2)CCC[N+]=5CCC4)c(S(=O)(=O)[O-])c1)C(=O)O | Oligopeptide-binding protein OppA (oppA, Lactococcus lactis subsp. lactis, UniProt Q07741) | binding, fluorescence anisotropy | – | pH 6, 45 °C, together with: dye-labelled peptide | 24 ± 1
C[C@@H](O)[C@@H]1NC(=O)[C@H](CCCCN)NC(=O)CCC(=O)NCCCC[C@@H](C(=O)NCC(=O)NCC(=O)N[C@@H](Cc2ccc(O)cc2)C(=O)NCC(=O)N[C@@H](CCCNC(=N)N)C(=O)N[C@@H](CCCCN)C(=O)N[C@@H](CCCCN)C(=O)N[C@@H](CCCNC(=N)N)C(=O)N[C@@H](CCCNC(=N)N)C(=O)N[C@@H](CCC(N)=O)C(=O)N[C@@H](CCCNC(=N)N)C(=O)N[C@@H](CCCNC(=N)N)C(=O)N[C@@H](CCCNC(=N)N)C(N)=O)NC(=O)[C@H](CCCCN)NC(=O)[C@H](CCC(=O)O)NC(=O)[C@H](CC(=O)O)NC(=O)CNC1=O | Heat shock protein HSP 90-alpha (HSP90AA1, Homo sapiens, UniProt P07900) | binding, field-effect biosensor | – | pH 7.4 | 137 ± 24.3
CC(C)CC(NC(=O)C(NC(=O)NC(C(=O)O)C(C)C)C1CCNC(=N)N1)C(=O)NCCCNC(C(=O)O)C(OC1OC(CN)C(O)C1O)C1OC(n2ccc(=O)[nH]c2=O)C(O)C1O (stereo not shown) | Phospho-N-acetylmuramoyl-pentapeptide-transferase (mraY, Aquifex aeolicus, UniProt O66465, H325A) | binding, ITC | – | – | 0.0244
CC[C@H](C)[C@H](NC(=O)[C@H](CCCNC(=N)N)NC(=O)[C@H](CC(N)=O)NC(=O)[C@H](CCC(=O)O)NC(=O)[C@@H]1CCCN1C(=O)[C@H](CC(=O)O)NC(=O)[C@H](CC(N)=O)NC(=O)[C@H](CC(=O)O)NC(=O)[C@H](CC(=O)O)NC(=O)[C@@H](N)CO)C(=O)N[C@@H](C)C(=O)N[C@@H](CCCCN)C(=O)N[C@@H](CCCCN)C(=O)N[C@@H](CCSC)C(=O)N[C@@H](CC(C)C)C(=O)N[C@@H](CC(C)C)C(=O)N[C@@]1(C)CCCC=CCCC[C@@](C)(C(=O)N[C@@H](CC(N)=O)C(=O)N[C@@H](CC(C)C)C(=O)N[C@@H](CO)C(=O)O)NC(=O)[C@H](CCCCN)NC(=O)[C@H]([C@@H](C)CC)NC(=O)[C@H](CCC(=O)O)NC1=O | Death domain-associated protein 6, residues 55-144 (Homo sapiens, UniProt Q9UER7) | isothermal titration calorimetry | – | pH 7.5, 25 °C | 0.34
CC[C@H](C)[C@H](NC(=O)[C@H](CCC(N)=O)NC(=O)[C@@H](NC(=O)[C@H](CO)NC(=O)CNC(=O)CNC(=O)CNC(=O)[C@@H]1CCCN1C(=O)[C@@H](NC(=O)[C@H](Cc1c[nH]cn1)NC(=O)[C@H](CCCCN)NC(=O)[C@@H](N)CCCCN)C(C)C)C(C)C)C(=O)N[C@H](C(=O)N[C@@H](Cc1ccc(O)cc1)C(=O)N[C@@H](CCCCN)C(=O)N1CCC[C@H]1C(=O)N[C@H](C(=O)N[C@@H](CC(=O)O)C(=O)N[C@@H](CC(C)C)C(=O)NCC(=O)NCC(=O)NCC(=O)N[C@@H](CSC1CC(=O)N(c2ccc3c(c2)C(=O)OC32c3ccc(N(C)C)cc3Oc3cc(N(C)C)ccc32)C1=O)C(=O)O)C(C)C)C(C)C (stereo partly shown) | Tubulin alpha-1A/beta chain (Sus scrofa, UniProt P02550+P02554) | binding, equilibrium dialysis | – | pH 6.9, 25 °C | 40
CC[C@H](C)[C@H](NC(=O)CNC(=O)[C@@H](NC(=O)[C@H](Cc1ccccc1)NC(=O)[C@H](Cc1ccc(O)cc1)NC(=O)[C@@H]1CCC(=O)NCC(=O)NCC(=O)N[C@@H](C)C(=O)NCC(=O)N[C@@H](CCCCN)C(=O)N[C@@H](C(C)C)C(=O)N2CCC[C@H]2C(=O)N1)C(C)C)C(=O)NCC(=O)N[C@H](C(=O)N1CCC[C@H]1C(=O)N[C@H](C(=O)N[C@@H](CO)C(=O)N[C@@H](Cc1ccccc1)C(=O)N[C@@H](Cc1ccc(O)cc1)C(=O)NCC(=O)O)[C@@H](C)CC)[C@@H](C)O | fhuA (Escherichia coli, UniProt P06971) | binding, native ESI mass spectrometry titration | MG1655 | – | 16.9 ± 0.4
CC[C@H](C)[C@H](NC(=O)[C@H](CCC(=O)O)NC(=O)[C@H](CS)NC(=O)[C@@H](NC(=O)CNC(=O)[C@H](CO)NC(=O)[C@H](CC(C)C)NC(=O)[C@H](CO)NC(=O)[C@H](CCC(=O)O)NC(=O)[C@H](CCCNC(=N)N)NC(=O)[C@@H](NC(=O)[C@H](C)NC(=O)[C@H](CS)NC(=O)[C@H](CCCNC(=N)N)NC(=O)CNC(=O)[C@@H](NC(=O)[C@H](CCCNC(=N)N)NC(=O)[C@H](CS)NC(=O)[C@H](Cc1ccc(O)cc1)NC(=O)[C@H](CS)NC(=O)[C@@H](NC(=O)[C@H](C)N)[C@@H](C)O)[C@@H](C)O)[C@@H](C)O)C(C)C)C(=O)N[C@@H](CO)C(=O)NCC(=O)N[C@@H](CCCNC(=N)N)C(=O)N[C@@H](CC(C)C)C(=O)N[C@@H](Cc1ccc(O)cc1)C(=O)N[C@@H](CCCNC(=N)N)C(=O)N[C@@H](CC(C)C)C(=O)N[C@@H](CS)C(=O)N[C@@H](CS)C(=O)N[C@@H](CCCNC(=N)N)C(=O)O | Zn(II) | metal binding | – | pH 7.4, one-site model, anaerobic | 0.000331 ± 0.000142

For quick reference, copied from above:
SMILES | target | assay | test system | conditions | Kd [µM]
CN(C)C(=O)C(NC(=O)c1ccccc1-c1ccc(C(F)(F)F)cc1)c1cccc(C(F)(F)F)c1 (stereo not shown) | NKG2-D type II integral membrane protein (Klrk1, Mus musculus, UniProt O54709) | binding, surface plasmon resonance | – | – | > 80
CC[C@H](C)[C@H](NC(=O)[C@H](Cc1c[nH]cn1)NC(=O)[C@H](CCCCNC(=O)[C@@H](NC(=O)[C@H](CCCCN)NC(=O)CSC[C@H](NC(=O)[C@H](Cc1ccccc1)NC(=O)[C@H](CCCCNC(=O)[C@H](CC(C)C)NC(=O)[C@@H]1CCCN1C(=O)[C@H](CCCCN)NC(=O)C[C@@H]1O[C@@H](C)[C@@H](O)[C@@H](O)[C@@H]1O)NC(=O)[C@H](CC(C)C)NC(=O)[C@@H]1CCCN1C(=O)[C@H](CCCCN)NC(=O)C[C@@H]1O[C@@H](C)[C@@H](O)[C@@H](O)[C@@H]1O)C(N)=O)[C@@H](C)CC)NC(=O)[C@@H](NC(=O)[C@H](CCCCN)NC(=O)CSC[C@H](NC(=O)[C@H](Cc1ccccc1)NC(=O)[C@H](CCCCNC(=O)[C@H](CC(C)C)NC(=O)[C@@H]1CCCN1C(=O)[C@H](CCCCN)NC(=O)C[C@@H]1O[C@@H](C)[C@@H](O)[C@@H](O)[C@@H]1O)NC(=O)[C@H](CC(C)C)NC(=O)[C@@H]1CCCN1C(=O)[C@H](CCCCN)NC(=O)C[C@@H]1O[C@@H](C)[C@@H](O)[C@@H](O)[C@@H]1O)C(N)=O)[C@@H](C)CC)C(N)=O | Fucose-binding lectin PA-IIL (lecB, Pseudomonas aeruginosa, UniProt Q9HYN5) | binding, ITC | – | pH 7.5 | 0.088
